Measurements gathered from unrelated publications.
Every numbered part comes from another study and shows a few of its results, in no order.

Set 1
Target: Centromere-binding protein 1, full length, His-tagged (CBF1, Saccharomyces cerevisiae, UniProt P17106, residues 1-351)
Chain of UniProt P17106 (whole entry, looked up): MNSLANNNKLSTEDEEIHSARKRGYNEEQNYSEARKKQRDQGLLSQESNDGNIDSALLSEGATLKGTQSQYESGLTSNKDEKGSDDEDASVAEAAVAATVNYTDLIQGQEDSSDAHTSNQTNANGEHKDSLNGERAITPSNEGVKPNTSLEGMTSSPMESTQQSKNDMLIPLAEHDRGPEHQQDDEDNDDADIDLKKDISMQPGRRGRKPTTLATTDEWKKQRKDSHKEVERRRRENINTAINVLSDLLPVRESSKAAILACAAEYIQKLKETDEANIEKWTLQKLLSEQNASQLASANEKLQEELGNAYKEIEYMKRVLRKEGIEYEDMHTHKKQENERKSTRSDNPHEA
Method: competition protein-binding microarray
Form: double-stranded DNA, one strand shown
Matrix: in vitro
Concentration: 2 µM
Notes: whole 60-bp probe, lowest competitor level
Added: Pho4 competitor, 0.05 µM
Reading: higher = stronger binding
For `GAAATGGTAGTTACACGCGTGAAATCAGGGTCTTAAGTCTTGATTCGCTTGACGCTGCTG`, the fluorescence intensity was 103 a.u.
The fluorescence intensity of `CAAAGGTGAAATTGCCGCGTGGCCGCTAGATCCTGCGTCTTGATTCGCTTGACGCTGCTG` is reported as 79.2 a.u.
The fluorescence intensity of `CATACCCAACCTTTTCACGTGCGATAAGATATTTGTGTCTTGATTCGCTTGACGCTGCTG` is reported as 865 a.u.
With `TGCGCAACAACTTTTCACGTGAGATTATGTCTAGAAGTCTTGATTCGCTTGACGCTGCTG` the fluorescence intensity was 1200 a.u.
`GACTTACATCTCTGGCACGTGGTGAAGTACGAGCCCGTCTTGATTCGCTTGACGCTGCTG` gave a fluorescence intensity of 1620 a.u.
`AAAAAGAAACTCCATCACGATGTAAGTACAAATGGTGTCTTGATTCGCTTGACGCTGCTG` has a fluorescence intensity of 127 a.u.
`TCACTACGCACAAACCATGTGGATGCCCAATCTGTAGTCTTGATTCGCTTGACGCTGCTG` gave a fluorescence intensity of 83.3 a.u.
`CTTCAGTTTTTTCACCACGTGAAGAGAATATGGATAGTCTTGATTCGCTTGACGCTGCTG` gave a fluorescence intensity of 2270 a.u.
`CTTTCCCGATCTTTTCACGTGTACTTAGCACATTTGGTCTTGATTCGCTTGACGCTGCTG` gave a fluorescence intensity of 873 a.u.
The fluorescence intensity of `TACGACGGCATTGGGCCCGTGGGTACTCACCGGGTTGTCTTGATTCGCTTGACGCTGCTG` is reported as 49.6 a.u.
`AGAATCACCCCATCTTACGTGGCAATCACCGATGATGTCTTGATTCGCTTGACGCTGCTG` gave a fluorescence intensity of 63.8 a.u.
The fluorescence intensity of `GACATACAGGAGTGCCACATGCGAAAGCGGAGTGGGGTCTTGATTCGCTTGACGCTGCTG` is reported as 90.3 a.u.
`AAAGCGGTAATTTGTAAGGTGGGTGCAGATATCTATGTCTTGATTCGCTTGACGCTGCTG` gave a fluorescence intensity of 78.1 a.u.
For `TCACCAGCCATTTTTGACATGACAGCTGGACCATTAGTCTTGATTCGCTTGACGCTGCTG`, the fluorescence intensity was 65.6 a.u.
With `CTAACGAAGGTTTGCCGTGTGGGTGACAAGCCAAGTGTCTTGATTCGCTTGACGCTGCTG` the fluorescence intensity was 66.3 a.u.
`CATACCCAACCTTGCTGTGTGGGTGAAGATATTTGTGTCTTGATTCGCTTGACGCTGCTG` has a fluorescence intensity of 64.5 a.u.
`CATACCCAACCTTGCCTTGTGGGTGAAGATATTTGTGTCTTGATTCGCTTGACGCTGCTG` gave a fluorescence intensity of 79.4 a.u.
With `CCGCATTCGACTCACCACGTGGAATATCCTTCTCAGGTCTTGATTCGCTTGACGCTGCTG` the fluorescence intensity was 645 a.u.

Set 2
Target: Histone acetyltransferase KAT6A, both winged helices, GST fusion (KAT6A, Homo sapiens, UniProt Q92794, residues 1-181)
Method: protein binding microarray
Form: double-stranded DNA, one strand shown
Matrix: in vitro
Concentration: not given
Notes: 8-mer, flanks averaged, mean of 2 arrays, mostly near background
Baseline: not given
Reading: higher = stronger binding
Construct (chain): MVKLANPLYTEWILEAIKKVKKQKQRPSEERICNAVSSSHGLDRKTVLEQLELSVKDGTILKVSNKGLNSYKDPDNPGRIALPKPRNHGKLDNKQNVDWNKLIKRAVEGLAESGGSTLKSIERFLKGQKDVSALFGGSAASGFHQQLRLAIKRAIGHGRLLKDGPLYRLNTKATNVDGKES
`ACTTGTTA` has an E-score of -0.0855.
`CCGCGTAG` gave an E-score of 0.195.
With `ACGGGACT` the E-score was 0.252.
The E-score of `TCAATCAA` is reported as 0.115.
With `TCTCTCCA` the E-score was -0.144.
`CCCGCAAC` gave an E-score of 0.202.
`CAGATAGG` has an E-score of -0.19.
For `CGACACGC`, the E-score was 0.141.
`CTGGAGAC` has an E-score of -0.1.
For `CTGCTCCA`, the E-score was -0.229.
With `AGGCAGTA` the E-score was -0.134.
With `AATGGTCT` the E-score was -0.0661.
`GTCAAGAA` has an E-score of -0.147.
`ATCAATGA` has an E-score of 0.0148.
The E-score of `GCCATGTA` is reported as -0.0477.
`CCCGGGAA` has an E-score of 0.254.
`CGTAATTA` has an E-score of 0.0407.
`ATTCCGGC` gave an E-score of 0.15.
With `TCGTAGCA` the E-score was -0.0818.
With `GGACCAAC` the E-score was 0.0462.
For `GCAACTAC`, the E-score was -0.0199.
With `CTAAATGA` the E-score was -0.0486.
`GCTGACCC` has an E-score of 0.0564.
For `ATCGATGA`, the E-score was -0.034.

Set 3
Target: RNA binding protein fox-1 homolog 2, RRM domain, GST-SBP tag (RBFOX2, Homo sapiens, UniProt O43251-10, residues 100-194)
Method: RNA Bind-n-Seq
Form: RNA
Matrix: in vitro
Concentration: 365 nM
Notes: natural RNA segment, single round, ends assumed
Baseline: no-protein control
Reading: higher = stronger binding
Target sequence (chain): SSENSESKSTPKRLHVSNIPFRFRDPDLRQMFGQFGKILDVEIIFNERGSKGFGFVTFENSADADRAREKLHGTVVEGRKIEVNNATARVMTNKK
`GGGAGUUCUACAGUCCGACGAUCCAAGCUAACACUGAAAAAAAAAAUGACAAAUUAAUGUGUCCUAUUAUCCAGGCUACAUCAGGAGGUUGGACUUCAAUGCAGUGCAUUUCUAGAAACAGUUUGGUAAACAUUGGAAUUCUCGGGUGCCAA` — result for “RBNS enrichment (R)”: 0.474.
`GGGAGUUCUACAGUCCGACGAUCCACUGACCAUAUGAGGAGCUGCAGAAAUCUGUACAAACUCAACAGAGGCCACCUAGUCACUGGUCCACAUAACCCUUGACCCCUUCUUCUUCAUAGAGGAAACAAUGUGCUGGAAUUCUCGGGUGCCAA`: “RBNS enrichment (R)” 0.219.
`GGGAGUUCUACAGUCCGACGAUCUGGGCUGCCGCAGGGCACUGAAAGCCCAGGACCAGUAACCAAGGAGAACAACCCACCCGUCGCCCUUCUCCGUAUGCUGCCUGCGCCAGAAGAGCUUUGCUGGGCCCUGGUGGAAUUCUCGGGUGCCAA` — result for “RBNS enrichment (R)”: 0.489.
`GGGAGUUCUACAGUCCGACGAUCUGGUUACCUACUGAGUAGGCUGCAGUUUUUGUAUGUUAUGAACAUGAAGUUCAUUAUUUUGUGGUUUUAUUUUACUUUGUACUUGUGUUUGCUUAAACAAAGUAACCUGUUGGAAUUCUCGGGUGCCAA`: “RBNS enrichment (R)” 1.08.
`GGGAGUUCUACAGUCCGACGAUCGGCCCGUCCUCGGGGGGCUGCGCACAUCACGCUCCUUGCCGGGCGUCCGGCACAGCUGCGGUCACCAAAGCAGGUGCUGGCCCUCGGACCUGAGAGCCCAGCCAGGGCCCUGGAAUUCUCGGGUGCCAA` — result for “RBNS enrichment (R)”: 0.231.
`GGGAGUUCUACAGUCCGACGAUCUCCACCCACACGACUGCAACAUACAGGUGCCUUGGGGAAAUGUGGAGAACAUUCAAUCUUGCCGUCACUAUUCAUCAAUGAAGAUUAACACUGAGAUCCAGAGAGGCUGGUGGAAUUCUCGGGUGCCAA`: “RBNS enrichment (R)” 0.428.
For `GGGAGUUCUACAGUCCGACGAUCGAUUUCCAGAAGUAAGUAGUUUCCCCUUUCCUAGUCUUCUGUGUAUGUGAUGUUGUUAAUUUCUUUUAUUGCAUUAUAAAAUAAAAGGAUUAUGUAUUUUUAACUAAGGUUGGAAUUCUCGGGUGCCAA`, “RBNS enrichment (R)” read 2.68.
For `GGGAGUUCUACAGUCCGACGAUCAUUUCUGUUUCUGCUUCUCCCUUGGCCAGUGUCAUUGAUGCAGAUCAUUGCAUACAACAGCACAGCAAAUUGCGCCAAGUCAGUGUGUGAAUGGGAAUUAGCAAUGCACGUGGAAUUCUCGGGUGCCAA`, “RBNS enrichment (R)” read 3.73.
`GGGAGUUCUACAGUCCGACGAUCAGUCAGUGGAAGGCGGGGGGGCCCUGGCCUCUGCACCGGGAUCCCAGUGGGAACCUUCAUGCCUUAUUUAUUUCUAAUGGGUAAAGGGGUUUUCUUACCAAGCAUCCCUGUGGAAUUCUCGGGUGCCAA`: “RBNS enrichment (R)” 0.258.
Under “RBNS enrichment (R)”, `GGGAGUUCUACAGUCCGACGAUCGUUGGCCUGUCACUUAAGUCAUUUCUCAACAAUGGCACUCACAAAGAGCUCCACAAUCAAGAUGGCAAAUGGAAACGUAAUCUGACUUCCUGGUGAAAAAUAAAAACCGGUGGAAUUCUCGGGUGCCAA` is recorded as 0.275.
Under “RBNS enrichment (R)”, `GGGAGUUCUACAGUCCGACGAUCCGUUAUCUUAAGGUGCAGUUUUAAGGUUCAGGCAUGCGCUCUGGCUCAUAGUGUUUGAAAGUGAUGUCCAUUAGUGGGACCGUAGCAUGCUUGCCUCGCAUAGAGUGCAGUGGAAUUCUCGGGUGCCAA` is recorded as 4.54.
`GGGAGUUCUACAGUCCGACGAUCAAAAAAAGCCUUAGUGGCCUGGUUGUUCAAAGGAUAAGAAUAGCUUUAUCCUGCACUCAGUACCCGAACUCACUUCAGUAUGCUUACUGAGGCCAUGAGAACCUGAGGGGUGGAAUUCUCGGGUGCCAA`: “RBNS enrichment (R)” 0.351.

Single results of other studies
`PhoQ, residues 284 288 289 292 302 303 AAQSYM` has a fold induction of 2.07 (PhoP, residues 12 14 15 18 19 DLLYY (Escherichia coli, UniProt P23836); Sort-seq, measured: YFP reporter; E. coli; PhoQ-PhoP variant library, added: 10 µM Mg2+; baseline: high Mg2+ state, higher = stronger signaling).

Excerpt of the above (set 3):
`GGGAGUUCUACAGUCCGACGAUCGGCCCGUCCUCGGGGGGCUGCGCACAUCACGCUCCUUGCCGGGCGUCCGGCACAGCUGCGGUCACCAAAGCAGGUGCUGGCCCUCGGACCUGAGAGCCCAGCCAGGGCCCUGGAAUUCUCGGGUGCCAA` — result for “RBNS enrichment (R)”: 0.231.
`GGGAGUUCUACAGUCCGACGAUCCAAGCUAACACUGAAAAAAAAAAUGACAAAUUAAUGUGUCCUAUUAUCCAGGCUACAUCAGGAGGUUGGACUUCAAUGCAGUGCAUUUCUAGAAACAGUUUGGUAAACAUUGGAAUUCUCGGGUGCCAA` — result for “RBNS enrichment (R)”: 0.474.
`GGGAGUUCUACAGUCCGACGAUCAAAAAAAGCCUUAGUGGCCUGGUUGUUCAAAGGAUAAGAAUAGCUUUAUCCUGCACUCAGUACCCGAACUCACUUCAGUAUGCUUACUGAGGCCAUGAGAACCUGAGGGGUGGAAUUCUCGGGUGCCAA`: “RBNS enrichment (R)” 0.351.
For `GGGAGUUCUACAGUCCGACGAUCAUUUCUGUUUCUGCUUCUCCCUUGGCCAGUGUCAUUGAUGCAGAUCAUUGCAUACAACAGCACAGCAAAUUGCGCCAAGUCAGUGUGUGAAUGGGAAUUAGCAAUGCACGUGGAAUUCUCGGGUGCCAA`, “RBNS enrichment (R)” read 3.73.
`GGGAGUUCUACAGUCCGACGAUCUCCACCCACACGACUGCAACAUACAGGUGCCUUGGGGAAAUGUGGAGAACAUUCAAUCUUGCCGUCACUAUUCAUCAAUGAAGAUUAACACUGAGAUCCAGAGAGGCUGGUGGAAUUCUCGGGUGCCAA`: “RBNS enrichment (R)” 0.428.
